{"data": "Earlier results as cited in several papers", "note": "Lines come from different studies, so protocols differ. ± marks the error that the study gave."}
{"SMILES": "CC(C)=CCC/C(C)=C/C[P+](c1ccccc1)(c1ccccc1)c1ccccc1", "tested on": "PC-3", "test": "cell growth", "quantity": "GI50", "value": "1200 nM"}
{"SMILES": "C[C@H](NC(=O)[C@H](Cc1c[nH]cn1)NC(=O)[C@H](CO)NC(=O)[C@@H](N)CC(=O)O)C(=O)N[C@@H](CCCCN)C(=O)N[C@@H](CCCNC(=N)N)C(=O)N[C@@H](Cc1c[nH]cn1)C(=O)N[C@@H](Cc1c[nH]cn1)C(=O)NCC(=O)N[C@@H](Cc1ccc(O)cc1)C(=O)N[C@@H](CCCCN)C(=O)N[C@@H](CCCNC(=N)N)C(=O)N[C@@H](CCCCN)C(=O)N[C@@H](Cc1ccccc1)C(=O)N[C@@H](Cc1c[nH]cn1)C(=O)N[C@@H](CCC(=O)O)C(=O)N[C@@H](CCCCN)C(=O)N[C@@H](Cc1c[nH]cn1)C(=O)N[C@@H](Cc1c[nH]cn1)C(=O)N[C@@H](CO)C(=O)N[C@@H](Cc1c[nH]cn1)C(=O)N[C@@H](CCCNC(=N)N)C(=O)NCC(=O)N[C@@H](Cc1ccc(O)cc1)C(=O)O", "tested on": "human gingival fibroblasts", "test": "IL8 production", "setting": "3.3 µM, with: Porphyromonas gingivalis outer-membrane protein 10.0 µg/mL", "quantity": "inhibition", "value": "47%"}
{"SMILES": "COc1ccccc1/C=C/[N+](=O)[O-]", "tested on": "MOLM-13", "setting": "concentration not given", "quantity": "cytotoxicity activity class", "value": "active"}
{"SMILES": "CC(C)C[C@@H]1NC(=O)[C@H](C(C)C)NC(=O)[C@H](CO)NC(=O)CNC(=O)CNC(=O)[C@H](CCCNC(=N)N)NC(=O)[C@@H]2CCCN2C(=O)[C@@H](NC(=O)CC[C@H](NC(=O)c2ccc(N(C)Cc3cnc4nc(N)nc(N)c4n3)cc2)C(=O)O)C(C)(C)SSC[C@@H](C(=O)O)NC(=O)CNC(=O)[C@H]([C@@H](C)O)NC(=O)[C@H](C(C)C)NC1=O", "tested on": "KB", "scale": "not toxic up to value", "quantity": "cytotoxicity", "value": "> 10 µM"}
{"SMILES": "CC1=C(C)C(=O)OC(C(C)(O)C2(O)CCC3(O)C4CC5OC56CC=CC(=O)C6(C)C4CCC32C)C1 (stereo not shown)", "tested on": "L5178Y", "test": "cell growth", "quantity": "IC50", "value": "620 nM"}
{"SMILES": "CSC([S-])=NN=Cc1ccc(O)cc1[O-].[C-]#[O+].[Ru+2].c1ccc(P(c2ccccc2)c2ccccc2)cc1.c1ccc(P(c2ccccc2)c2ccccc2)cc1", "tested on": "MCF7", "setting": "2 days", "quantity": "apoptotic activity", "value": "33.1 µM"}
{"SMILES": "CCCCCCCC(=O)NCC(=O)N[C@@H](C)C(=O)N[C@@H](CC(C)C)C(=O)N[C@](C)(CC)C(=O)N[C@@H](C)C(=O)N[C@H](C(=O)N[C@H](CO)CC(C)C)[C@@H](C)CC", "tested on": "HL-60", "test": "cell growth, MTT", "quantity": "IC50", "value": "4000 nM"}
{"SMILES": "CC1=C(C)C(=O)OC(C(C)(O)C2(O)CCC3(O)C4CC5OC56C(O)C=CC(=O)C6(C)C4CCC32C)C1 (stereo not shown)", "tested on": "MCF7", "test": "cell growth", "quantity": "IC50", "value": "1790 nM"}
{"SMILES": "F[P-](F)(F)(F)(F)F.NCCN.[Cl][Ru+].c1ccc(-c2ccccc2)cc1", "tested on": "MDA-MB-231", "test": "cell viability, MTT", "setting": "24 h", "quantity": "IC50", "value": "62000 nM"}
{"SMILES": "CN[C@H](CC(C)C)C(=O)N[C@H]1C(=O)N[C@@H](CC(N)=O)C(=O)N[C@H]2C(=O)N[C@H]3C(=O)N[C@H](C(=O)N[C@H](C(=O)O)c4cc(O)cc(O)c4-c4cc3ccc4O)[C@H](O)c3ccc(c(Cl)c3)Oc3cc2cc(c3O[C@@H]2O[C@H](CO)[C@@H](O)[C@H](O)[C@H]2O[C@H]2C[C@](C)(NCc3ccc(-c4ccc(Cl)cc4)cc3)[C@H](O)[C@H](C)O2)Oc2ccc(cc2Cl)[C@H]1O", "system": "mouse", "setting": "intravenous, 75 mg/kg, maximum tolerated dose", "quantity": "clearance", "value": "2.17 mL/min/kg"}
{"SMILES": "COC[C@@H](NC(C)=O)C(=O)NCc1ccc(OCc2cccc(F)c2)cc1", "tested on": "CAD", "setting": "8.5 µM, use-dependent", "quantity": "sodium current reduction", "value": "40%"}
{"SMILES": "COc1ccc(S(=O)(=O)N(C)C)cc1N1CCN(C(=O)c2ccc(F)cc2C(F)(F)F)CC1", "tested on": "naive dopamine neurons", "quantity": "survival-promoting concentration", "value": "0.1 to 1 µM"}
{"SMILES": "C=CCc1cc(OC)c(OC)c(OC)c1OC", "tested on": "HT-29", "test": "cell growth", "quantity": "IC50", "value": "298000 nM"}
{"SMILES": "C#CCN[C@@H]1C=C[C@]2(O[C@H]([C@@H](CC)C(=O)[C@@H](C)[C@@H](O)[C@H](C)[C@@H]3O[C@@H]([C@@H](CC)C(=O)O)CC[C@@H]3C)[C@@H](C)C[C@H]2C)O[C@@]12CC[C@@](C)([C@H]1CC[C@](O)(CC)[C@H](C)O1)O2", "tested on": "HMLER CD24low/CD44high", "scale": "relative to: salinomycin", "quantity": "relative potency", "value": "~10"}
{"SMILES": "CC(C)c1c(O)c(O)c2c(c1O)C(=O)C(O)=C1C(C)(C)CCCC12C (stereo not shown)", "tested on": "NCI-H460", "quantity": "GI50", "value": "3000 ± 200 nM"}
{"SMILES": "O=C(OCC[18F])C1C2CCC(CC1c1ccc(/C=C\\I)cc1)N2 (stereo not shown)", "tested on": "SERT", "test": "microPET", "system": "anaesthetised, thalamus", "quantity": "time to peak uptake", "value": "85 min"}
